Published values gathered from unrelated publications.
Protocols differ between the studies behind these lines. Converted amounts (≈) assume the structure as drawn.
4'-phosphopantetheinyl transferase PptT: 4'-phosphopantetheinyl transferase PptT (Mycobacterium tuberculosis, UniProt O33336)
UniProt O33336, sequence (whole entry, looked up): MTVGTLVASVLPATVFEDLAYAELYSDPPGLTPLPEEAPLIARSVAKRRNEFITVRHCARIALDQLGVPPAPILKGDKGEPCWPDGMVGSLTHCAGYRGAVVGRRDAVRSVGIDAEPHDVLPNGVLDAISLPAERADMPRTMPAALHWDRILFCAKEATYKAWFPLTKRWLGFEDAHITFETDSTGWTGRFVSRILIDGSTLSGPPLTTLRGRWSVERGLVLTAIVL
UniProt Q05655, sequence (whole entry, looked up): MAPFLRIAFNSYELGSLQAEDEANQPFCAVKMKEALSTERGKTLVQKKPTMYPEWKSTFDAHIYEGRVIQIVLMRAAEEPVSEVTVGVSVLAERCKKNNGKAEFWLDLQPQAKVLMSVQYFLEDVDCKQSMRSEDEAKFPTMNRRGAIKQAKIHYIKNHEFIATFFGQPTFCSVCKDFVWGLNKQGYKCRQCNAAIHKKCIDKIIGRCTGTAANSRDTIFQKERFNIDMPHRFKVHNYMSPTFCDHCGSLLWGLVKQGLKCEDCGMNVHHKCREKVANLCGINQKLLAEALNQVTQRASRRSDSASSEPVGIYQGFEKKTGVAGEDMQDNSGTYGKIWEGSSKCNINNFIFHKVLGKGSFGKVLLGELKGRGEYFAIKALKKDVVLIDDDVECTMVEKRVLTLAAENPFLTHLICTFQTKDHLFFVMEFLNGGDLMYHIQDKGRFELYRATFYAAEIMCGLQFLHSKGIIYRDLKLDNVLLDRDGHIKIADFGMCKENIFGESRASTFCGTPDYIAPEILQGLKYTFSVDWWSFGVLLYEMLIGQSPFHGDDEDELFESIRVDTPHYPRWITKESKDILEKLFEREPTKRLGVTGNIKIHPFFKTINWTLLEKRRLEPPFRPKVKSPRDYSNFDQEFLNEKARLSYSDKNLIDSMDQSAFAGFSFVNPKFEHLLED
UniProt Q9BRS2, sequence (whole entry, looked up): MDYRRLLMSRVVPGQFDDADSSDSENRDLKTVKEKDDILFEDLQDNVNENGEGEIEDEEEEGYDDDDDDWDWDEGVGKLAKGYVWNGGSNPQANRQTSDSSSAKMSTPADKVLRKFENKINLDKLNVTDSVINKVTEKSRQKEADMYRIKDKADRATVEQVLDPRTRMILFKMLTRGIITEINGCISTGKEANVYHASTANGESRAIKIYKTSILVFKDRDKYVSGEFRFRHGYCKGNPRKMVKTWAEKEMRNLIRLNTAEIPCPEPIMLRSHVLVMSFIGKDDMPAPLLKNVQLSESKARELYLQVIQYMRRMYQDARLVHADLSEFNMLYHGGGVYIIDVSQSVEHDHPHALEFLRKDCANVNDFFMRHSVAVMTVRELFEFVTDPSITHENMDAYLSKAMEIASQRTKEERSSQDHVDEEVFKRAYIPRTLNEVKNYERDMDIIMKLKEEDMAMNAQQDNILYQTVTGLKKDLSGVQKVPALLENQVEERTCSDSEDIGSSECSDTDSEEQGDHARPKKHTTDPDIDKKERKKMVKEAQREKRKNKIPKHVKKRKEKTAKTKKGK
UniProt Q16659, sequence (whole entry, looked up): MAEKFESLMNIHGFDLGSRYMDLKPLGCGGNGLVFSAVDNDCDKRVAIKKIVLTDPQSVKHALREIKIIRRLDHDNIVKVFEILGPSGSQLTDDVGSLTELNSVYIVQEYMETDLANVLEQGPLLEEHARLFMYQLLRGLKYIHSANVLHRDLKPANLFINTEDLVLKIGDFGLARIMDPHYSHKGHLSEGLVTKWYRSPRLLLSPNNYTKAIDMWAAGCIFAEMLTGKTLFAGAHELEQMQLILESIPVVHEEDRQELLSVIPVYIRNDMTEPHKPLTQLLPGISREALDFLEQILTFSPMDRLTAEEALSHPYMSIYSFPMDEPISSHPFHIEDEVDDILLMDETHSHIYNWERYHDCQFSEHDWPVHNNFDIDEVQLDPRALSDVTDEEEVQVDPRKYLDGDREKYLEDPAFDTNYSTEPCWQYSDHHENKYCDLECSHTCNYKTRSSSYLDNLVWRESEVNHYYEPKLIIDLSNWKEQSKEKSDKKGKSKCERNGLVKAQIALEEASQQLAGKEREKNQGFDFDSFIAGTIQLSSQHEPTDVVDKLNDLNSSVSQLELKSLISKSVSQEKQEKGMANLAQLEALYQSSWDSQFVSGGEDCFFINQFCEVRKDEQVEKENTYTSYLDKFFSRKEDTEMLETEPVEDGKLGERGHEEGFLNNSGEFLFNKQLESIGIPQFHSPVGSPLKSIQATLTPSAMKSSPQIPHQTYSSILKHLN
UniProt Q6PHR2, sequence (whole entry, looked up): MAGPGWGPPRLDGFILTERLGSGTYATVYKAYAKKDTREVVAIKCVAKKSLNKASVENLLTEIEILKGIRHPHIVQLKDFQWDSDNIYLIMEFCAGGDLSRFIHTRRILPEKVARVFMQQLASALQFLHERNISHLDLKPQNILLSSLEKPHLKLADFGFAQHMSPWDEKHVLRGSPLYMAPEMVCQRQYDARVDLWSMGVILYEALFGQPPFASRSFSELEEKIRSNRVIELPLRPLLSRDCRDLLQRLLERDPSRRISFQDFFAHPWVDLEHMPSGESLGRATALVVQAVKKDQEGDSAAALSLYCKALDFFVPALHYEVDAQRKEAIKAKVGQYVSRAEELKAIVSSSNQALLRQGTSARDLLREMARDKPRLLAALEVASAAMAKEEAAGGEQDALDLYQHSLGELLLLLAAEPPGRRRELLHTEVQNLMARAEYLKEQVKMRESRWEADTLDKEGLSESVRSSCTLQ

Compound | target or system | test | test system | conditions | quantity | value
NCCCC[C@@H]1NC(=O)[C@@H](CCCN)NC(=O)[C@@H](Cc2ccccc2)NC(=O)[C@H](Cc2ccccc2)NC(=O)CNC1=O | Balamuthia mandrillaris | parasite growth, ATP luminescence |  |  | IC90 | > 16 µg/mL
C#Cc1ccc(C=NNC(=O)c2ccc(Br)cc2)c(O)c1 | Aspergillus fumigatus | microbial growth |  | 48 h, pH 6.5 | MIC80 | > 16 µg/mL
CO/C=C(/C(=O)OC)c1ccccc1Oc1cc(Oc2ccccc2C#N)ncn1 | Fusarium oxysporum | microbial growth |  | 50 µg/mL | inhibition | 33.7%
COC(=O)c1cc(-c2cccc(NC(=S)Nc3ccc(C#N)cc3)c2)on1 | Acinetobacter baumannii | microbial growth, broth dilution | BAA1605 |  | MIC | > 64 µg/mL
CSc1nc2ccc(Cl)cc2c(=O)n1Cc1cccnc1 | 4'-phosphopantetheinyl transferase PptT | enzyme activity, inhibitor, FP |  |  | IC50 | > 100000 nM
Cc1ccc(-c2cc3c(c(OCC4CCCN(C)C4)c2)OCCN(C(=O)Cc2c(C)noc2C)C3)s1 (stereo not shown) | Leishmania mexicana | parasite growth |  | intracellular, amastigote | EC50 | ~2000 nM
C#Cc1cc(O)c(C=NNC(=O)c2ccc(Br)cc2Br)cc1C#C | Aspergillus fumigatus | microbial growth |  | 48 h, pH 6.5 | MIC80 | 16 µg/mL (≈ 35.9 µM)
CC(=O)N1CCN(c2ccc(OCC3COC(Cn4ccnc4)(c4ccc(Cl)cc4Cl)O3)cc2)CC1 (stereo not shown) | Candida albicans | microbial killing, broth dilution | 14936 | 48 h | MFC | > 64 µM
C#CC[C@@H]1NC(=O)[C@@H](CCCNC(=N)N)NC(=O)[C@H]([C@@H](C)O)NC(=O)[C@@H](CCCN)NC(=O)[C@H](Cc2ccccc2)NC(=O)[C@@H](Cc2ccccc2)NC1=O | Balamuthia mandrillaris | parasite growth, ATP luminescence |  |  | IC90 | > 20000 nM
O=C(NCCc1ncc(C(F)(F)F)cc1Cl)c1ccccc1C(F)(F)F | Fusarium oxysporum | microbial growth |  | 50 µg/mL | inhibition | 11.5%
Nc1ncc(-c2nc(N3CCOCC3)nc(N3CCOCC3)n2)c(C(F)F)n1 | Serine/threonine-protein kinase ULK3 (ULK3, Homo sapiens, UniProt Q6PHR2) | binding, competition with immobilised ligand |  | 10 µM | remaining binding | 60%
Cc1nn(C)cc1-c1nc2c(N3CCN(Cc4ccc(Cl)cc4)CC3)c(Cl)cnc2[nH]1 | Protein kinase C delta type (PRKCD, Homo sapiens, UniProt Q05655) | binding, competition with immobilised ligand |  | 1 µM | remaining binding | 100%
Nc1ncnc2c([C@@H]3N[C@H](CO)[C@@H](O)[C@H]3O)c[nH]c12 | human respiratory syncytial virus | viral replication, inhibitor | MA104 | 0.3 µM | inhibition | 2.5%
C[C@@H](O)[C@@H]1NC(=O)[C@H](CCCNC(=N)N)NC(=O)[C@@H](Cc2ccccc2)NC(=O)[C@H](Cc2ccccc2)NC(=O)CNC1=O | Balamuthia mandrillaris | parasite growth, ATP luminescence |  |  | IC50 | > 16 µg/mL
C#Cc1cccc(C=NNC(=O)c2ccc(Br)c(Br)c2)c1O | Aspergillus fumigatus | microbial growth |  | 48 h, pH 6.5 | MIC80 | 1 µg/mL (≈ 2.37 µM)
Oc1c(Br)cc(Br)cc1-c1[nH]c(Br)c(Br)c1Br | Acinetobacter baumannii | microbial growth | ATCC19606 |  | MIC | 8 µM
C#Cc1ccc(C=NNC(=O)c2ccc(Br)c(O)c2)c(O)c1 | Aspergillus fumigatus | microbial growth |  | 48 h, pH 6.5 | MIC80 | > 32 µg/mL
COC(=O)c1cc(-c2cccc(NC(=O)Nc3ccc(Cl)c(Cl)c3)c2)on1 | Acinetobacter baumannii | microbial growth, broth dilution | BAA1605 |  | MIC | > 64 µg/mL
N=C(N)c1ccc(OCCCCCOc2ccc(C(=N)N)cc2)cc1 | Leishmania donovani | parasite growth | THP-1 | intracellular, amastigote | IC90 | 7 µg/mL
C#Cc1cccc(C=NNC(=O)c2ccc(Br)cc2Br)c1O | Aspergillus fumigatus | microbial growth |  | 48 h, pH 6.5 | MIC80 | 1 µg/mL (≈ 2.37 µM)
NCCCC[C@H]1NC(=O)[C@H](Cc2ccccc2)NC(=O)[C@H](Cc2c[nH]c3ccccc23)NC(=O)[C@@H](Cc2ccccc2)NC(=O)[C@H](Cc2ccccc2)NC(=O)[C@@H](CCCN)NC(=O)[C@H](CCCN)NC1=O | Balamuthia mandrillaris | parasite growth, ATP luminescence |  |  | IC50 | 3.67 µg/mL
Cn1cc2c3c1C(=O)C(N)=CC3=NCC2 | Babesia divergens | parasite growth, SYBR Green |  | 60 h, blood stage | IC50 | 2370 nM
COC(=O)c1cc(-c2cccc(NC(=S)Nc3ccc(Cl)cc3)c2)on1 | Mycobacteroides abscessus | microbial growth, broth dilution | ATCC19977 | 48 h | MIC | > 64 µg/mL
CC(C)[C@H]1NC(=O)[C@H](Cc2ccccc2)NC(=O)CNC(=O)[C@@H](Cc2c[nH]c3ccccc23)NC(=O)[C@H](CCCCN)NC(=O)[C@@H](CCCN)NC1=O | Balamuthia mandrillaris | parasite growth, ATP luminescence |  |  | IC50 | > 16 µg/mL
N.N.[Cl][Pt][Cl] | JVM13 | cell growth or viability, ATP luminescence |  | 72 h | IC50 | 580 nM

Compound | target or system | test | test system | conditions | quantity | value
COc1ncccc1-c1cnn2ccc(N3CCN(C(=O)OC(C)C)CC3)nc12 | Mitogen-activated protein kinase 6 (MAPK6, Homo sapiens, UniProt Q16659) | binding, competition with immobilised ligand |  | 1 µM | remaining binding | 100%
CC(C)C[C@H]1NC(=O)[C@H]([C@@H](C)O)NC(=O)[C@@H](CCCN)NC(=O)[C@H](CCCNC(=N)N)NC(=O)[C@@H](Cc2ccccc2)NC1=O | Balamuthia mandrillaris | parasite growth, ATP luminescence |  |  | IC50 | > 16 µg/mL
O=c1ccc2nc3ccc(O)cc3oc-2c1 | Acinetobacter baumannii | microbial growth |  | 24 h | MIC | > 32 µg/mL
Cc1ccc(NNC(=O)c2nnc(CC34CC5CC(CC(C5)C3)C4)o2)cc1 | Fusarium oxysporum | microbial growth |  |  | EC50 | > 12.5 µg/mL
C#Cc1ccc(O)c(C=NNC(=O)c2cc(Br)cc(Br)c2O)c1 | Aspergillus fumigatus | microbial growth |  | 48 h, pH 6.5 | MIC80 | 4 µg/mL (≈ 9.13 µM)
CC(C)[C@@H]1NC(=O)[C@@H](CCCCN)NC(=O)[C@H](CCCN)NC(=O)[C@@H](CC(=O)O)NC(=O)[C@H](C)NC(=O)[C@H](Cc2c[nH]c3ccccc23)NC(=O)[C@@H](Cc2ccccc2)NC1=O | Balamuthia mandrillaris | parasite growth, ATP luminescence |  |  | IC90 | > 16 µg/mL
COC(=O)c1cc(-c2cccc(NC(=O)Nc3ccc(F)cc3)c2)on1 | Mycobacteroides abscessus | microbial growth, broth dilution | ATCC19977 | 48 h | MIC | > 64 µg/mL
C[C@@H]1[C@H](O)[C@@H](C)/C=C/C=C/C=C/C=C/C=C/C=C/C=C/[C@H](O[C@@H]2O[C@H](C)[C@@H](O)[C@H](N)[C@@H]2O)C[C@@H]2O[C@](O)(C[C@@H](O)C[C@@H](O)[C@H](O)CC[C@@H](O)C[C@@H](O)CC(=O)O[C@H]1C)C[C@H](O)[C@H]2C(=O)O | Leishmania donovani | parasite growth |  | amastigote | IC90 | 0.36 µg/mL
COC(=O)c1cc(-c2cccc(NC(=O)Nc3ccc(Cl)cc3)c2)on1 | Mycobacteroides abscessus | microbial growth, broth dilution | ATCC19977 | 48 h | MIC | > 64 µg/mL
O=C(NNc1cc(F)ccc1F)c1nnc(C23CC4CC(CC(C4)C2)C3)o1 | Fusarium oxysporum | microbial growth |  | 50 µg/mL | inhibition | 100%
COC(=O)c1cc(-c2cccc(NC(=S)Nc3ccccc3)c2)on1 | Acinetobacter baumannii | microbial growth, broth dilution | BAA1605 |  | MIC | > 64 µg/mL
O=C(NNc1cc(F)ccc1F)c1nnc(CC23CC4CC(CC(C4)C2)C3)o1 | Fusarium oxysporum | microbial growth |  | 50 µg/mL | inhibition | 100%
C#Cc1cccc(O)c1C=NNC(=O)c1ccc(Br)c(Br)c1 | Aspergillus fumigatus | microbial growth |  | 48 h, pH 6.5 | MIC80 | 8 µg/mL (≈ 19 µM)
O=C(NNc1ccc(F)c(F)c1)c1nnc(CC23CC4CC(CC(C4)C2)C3)o1 | Fusarium oxysporum | microbial growth |  | 50 µg/mL | inhibition | 100%
Oc1c(Cl)cc(Cl)cc1-c1[nH]c(Cl)c(Cl)c1Cl | Acinetobacter baumannii | microbial growth | ATCC19606 |  | MIC | 4 µM
COC(=O)c1cc(-c2cccc(NC(=O)Nc3c(C)cccc3C)c2)on1 | Mycobacteroides abscessus | microbial growth, broth dilution | ATCC19977 | 48 h | MIC | > 64 µg/mL
O=C(NNc1ccc(Cl)cc1)c1nnc(C23CC4CC(CC(C4)C2)C3)o1 | Fusarium oxysporum | microbial growth |  | 50 µg/mL | inhibition | 100%
COC(=O)c1cc(-c2cccc(NC(=O)Nc3ccc(Cl)c(C(F)(F)F)c3)c2)on1 | Acinetobacter baumannii | microbial growth, broth dilution | BAA1605 |  | MIC | > 64 µg/mL
C[N+]1=C2C=C(NCCc3ccc(O)cc3)C(=O)c3[nH]cc(c32)CC1 | Babesia divergens | parasite growth, SYBR Green |  | 60 h, blood stage | IC50 | 3.4 nM
CC(C)[C@@H]1NC(=O)[C@@H](Cc2ccccc2)NC(=O)[C@H](Cc2ccccc2)NC(=O)[C@@H]([C@H](C)O)NC(=O)[C@H]([C@@H](C)O)NC(=O)[C@@H](CCCNC(=N)N)NC1=O | Balamuthia mandrillaris | parasite growth, ATP luminescence |  |  | IC50 | > 16 µg/mL
O=C(NNc1ccc(Cl)c(Cl)c1)c1nnc(CC23CC4CC(CC(C4)C2)C3)o1 | Fusarium oxysporum | microbial growth |  |  | EC50 | > 50 µg/mL
[2H]c1c([2H])c([C@]2([2H])CCCN2C(=O)C(C)(C)Oc2ccc3cn[nH]c3c2)c([2H])c([2H])c1C([2H])([2H])[2H] | Serine/threonine-protein kinase RIO1 (RIOK1, Homo sapiens, UniProt Q9BRS2) | binding, competition with immobilised ligand |  | 1 µM | remaining binding | 78%
C#Cc1cc(O)c(C=NNC(=O)c2ccc(Br)c(Br)c2)cc1C#C | Aspergillus fumigatus | microbial growth |  | 48 h, pH 6.5 | MIC80 | 8 µg/mL (≈ 17.9 µM)
NS(=O)(=O)N=c1[nH]c2ccc(Cl)cc2c(=O)n1Cc1cccnc1 | 4'-phosphopantetheinyl transferase PptT | enzyme activity, inhibitor, FP |  |  | IC50 | > 100000 nM

A few entries again:
Compound | target or system | test | test system | conditions | quantity | value
COC(=O)c1cc(-c2cccc(NC(=S)Nc3ccc(Cl)cc3)c2)on1 | Mycobacteroides abscessus | microbial growth, broth dilution | ATCC19977 | 48 h | MIC | > 64 µg/mL
CC(C)[C@H]1NC(=O)[C@H](Cc2ccccc2)NC(=O)CNC(=O)[C@@H](Cc2c[nH]c3ccccc23)NC(=O)[C@H](CCCCN)NC(=O)[C@@H](CCCN)NC1=O | Balamuthia mandrillaris | parasite growth, ATP luminescence |  |  | IC50 | > 16 µg/mL
N.N.[Cl][Pt][Cl] | JVM13 | cell growth or viability, ATP luminescence |  | 72 h | IC50 | 580 nM
COc1ncccc1-c1cnn2ccc(N3CCN(C(=O)OC(C)C)CC3)nc12 | Mitogen-activated protein kinase 6 (MAPK6, Homo sapiens, UniProt Q16659) | binding, competition with immobilised ligand |  | 1 µM | remaining binding | 100%
CC(C)C[C@H]1NC(=O)[C@H]([C@@H](C)O)NC(=O)[C@@H](CCCN)NC(=O)[C@H](CCCNC(=N)N)NC(=O)[C@@H](Cc2ccccc2)NC1=O | Balamuthia mandrillaris | parasite growth, ATP luminescence |  |  | IC50 | > 16 µg/mL
